Experimental data pooled from the literature.
Each numbered part is a random draw from the data of one study; scales do not carry over between parts.

Set 1
Target: Centromere-binding protein 1, full length, His-tagged (CBF1, Saccharomyces cerevisiae, UniProt P17106, residues 1-351)
UniProt P17106, sequence (whole entry, looked up): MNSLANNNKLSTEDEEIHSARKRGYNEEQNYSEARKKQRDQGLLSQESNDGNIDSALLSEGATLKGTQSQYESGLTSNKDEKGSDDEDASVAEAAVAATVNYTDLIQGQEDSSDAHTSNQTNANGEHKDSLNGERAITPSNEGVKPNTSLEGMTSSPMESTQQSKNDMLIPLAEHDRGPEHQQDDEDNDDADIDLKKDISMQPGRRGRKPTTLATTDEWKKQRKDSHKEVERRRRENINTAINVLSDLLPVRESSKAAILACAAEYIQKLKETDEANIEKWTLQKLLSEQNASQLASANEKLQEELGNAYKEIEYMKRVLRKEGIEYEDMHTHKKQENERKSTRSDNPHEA
Technique: competition protein-binding microarray
Form: double-stranded DNA, one strand shown
Matrix: in vitro
Tested at: 2 µM
Notes: whole 60-bp probe, lowest competitor level
Together with: Pho4 competitor, 0.05 µM
Direction: higher = stronger binding
Quantity: fluorescence intensity
Constant ends, left off below: … GTCTTGATTCGCTTGACGCTGCTG
GTTGATTTGAACAGAAGCGTGGTGAACGGCTTTGAT: 78.6 a.u.
GTCTTGTCTCATTGAAGGGTGGGTGTCCCCACTTCA: 83.7 a.u.
TGCGCGCCCGCGACCCACGTGACGGTGATTCATTCG: 3980 a.u.
AGCTGATGCAATTATCCAATAATTTCTTTCACCACC: 102 a.u.
GAATATGAATGTTCCCTTAATCAGCCGGGATAATCT: 74.3 a.u.
GGCCAAAGTGTTCGTCACAAAACAGTGGTCCTATAT: 110 a.u.
GTCAATCGATTGGATCAGGTGAGGAAGTACTCAGCG: 323 a.u.
GCAGACGACTAAAGCCATGGTCAAGCCTGGTAATCC: 56.5 a.u.
CAATAGCCGGGCTGGCACGCTACTAGAAGGCGGTTC: 65.4 a.u.
CCGATGGCACAACACCATGTGATGGGTTGGGAGTGG: 392 a.u.
TCATTTGGTGTCCATCACGTGGAATACCTCCCCTAT: 909 a.u.
TGCGCAACAACTTTTCACGTGCTGTTATGTCTAGAA: 1170 a.u.
ACTTCTACTAAGAGTAACGTGGCCGAGAAGAGAAGA: 109 a.u.
GTCTTGTCTCATTGTAAGGTGGGTGTCCCCACTTCA: 85.9 a.u.
AGGTTGCCAGGGCTGCACGAGGAGTGGATTTCTGCT: 85.5 a.u.
AGAAGGTCAAGGAATCTCGTGATGGCATCAAACTAG: 324 a.u.
CCCCGAAATTGAGCGCACATGCTCGCAAGATAATAT: 227 a.u.
TGCTAGAGCTCGTTCCACGTGGTTACACATCCGCCA: 636 a.u.
GCGCCGTTCTCCACAGCCGTGATGGCTAAAGTGGCG: 67.5 a.u.
CTAACGAAGGTTTGACATGTGGGTGACAAGCCAAGT: 102 a.u.
AGTCCGGTGTGTAGGTGCATGACAGATTGGTCCGGC: 60.4 a.u.
CGGGGTTAAGTTTGGGACGTGGGTGGCTTGCAGCAG: 53.9 a.u.
CGGGGTTAAGTTTTTCACGTGCTGTGCTTGCAGCAG: 895 a.u.
GTACTGGCTGAGCCGGTCGTGCCGAAAATGAAAATA: 81.2 a.u.
CGTCCTAGTGATTGCTTCGTGGGTGCCATGAGGAAG: 91.5 a.u.

Set 2
Target: Histone acetyltransferase KAT6A, both winged helices, GST fusion (KAT6A, Homo sapiens, UniProt Q92794, residues 1-181)
Technique: protein binding microarray
Form: double-stranded DNA, one strand shown
Matrix: in vitro
Tested at: not given
Notes: 8-mer, flanks averaged, mean of 2 arrays, mostly near background
Baseline: not given
Direction: higher = stronger binding
Quantity: E-score
Residues (chain): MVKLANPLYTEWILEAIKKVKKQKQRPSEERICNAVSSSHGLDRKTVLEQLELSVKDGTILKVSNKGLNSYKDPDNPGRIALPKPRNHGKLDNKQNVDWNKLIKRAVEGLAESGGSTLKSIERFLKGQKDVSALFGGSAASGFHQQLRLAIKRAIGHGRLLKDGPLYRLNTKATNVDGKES
ACTCCCTC: -0.196
AGGAGGTC: -0.18
ATTGTACG: 0.0196
ATCTCTTA: -0.091
CGCGCAAA: 0.231
GACAGGCC: 0.0182
CGGGGACA: 0.127
CAGGGTTA: -0.121
ACGCGTTC: 0.346
CTACAAAG: -0.165
AAGCAAGT: -0.0885
GGTGGCGA: 0.0238
GATTCTGC: -0.0119
CGTTCGAC: 0.113
CACGCATG: 0.0383
GCCCTAAA: 0.0729
AAGATGAA: -0.161
ACGCACGC: 0.301
AGACATTA: 0.00291
AAACGCAT: 0.134
TGAATAAA: 0.0246
ACCTTCAC: -0.129
CTGATTGA: -0.0495
CCCTACGC: 0.111
ACTGTGTG: -0.154

Set 3
Target: RNA binding protein fox-1 homolog 2, RRM domain, GST-SBP tag (RBFOX2, Homo sapiens, UniProt O43251-10, residues 100-194)
Technique: RNA Bind-n-Seq
Form: RNA
Matrix: in vitro
Tested at: 365 nM
Notes: natural RNA segment, single round, ends assumed
Baseline: no-protein control
Direction: higher = stronger binding
Quantity: RBNS enrichment (R)
Constant ends, left off below: GGGAGUUCUACAGUCCGACGAUC … UGGAAUUCUCGGGUGCCAA
Residues (chain): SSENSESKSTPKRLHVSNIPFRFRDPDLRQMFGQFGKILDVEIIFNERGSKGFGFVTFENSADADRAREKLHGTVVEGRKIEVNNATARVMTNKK
CACUGGAUUAUGAGGAAUGGAUAAAUGGAUGAGCUAGGGCUCUGGGGGUCUGCCUGCACACUCUGGGGAGCCAGGGGCCCCAGCACCCUCCAGGACAGGAGAUCUGGGAU: 2.78
UUGGGUGUGGUGAGGGAGGGGACAUAUCCUAGGGUUUUCAAAUAAAACAAUCAGAAAAAAAAAAAAAGCUCUGUGAGGCGCCUCCUGACUGCCUGGUCCUGUGUGGGUGU: 1.32
AGCAGGGCUGUGUCCCAGAUGGGCCACGGCUGAGCCUUCAGAGUACGUCCUGCCUGGCACUUACUGGUCCUUACCAGAGACGCCCAGCCCCAUCCCUGUCCUCAUGACCC: 0.19
GUUUGUUUUGUGCAUUAAGGGACAUAACUUGGGACUCAAAGGGAUUGUUUCGCUGACCCCGCUCUUGUGUGUUCCCUCUGGUGCCCACCCCAGGGCAUCUGCCAACUCCA: 0.549
AAAGAUUGAUGAUAGAUGAAUAAACAGAUUUGUGGCCUCUGGUAAAGAAAUCCAGCCAAGUUCCUCUGUCCAAAUUUUUAAGUGCCCUUUGCAAGCUAAUCUAUUUGGCA: 0.739
AGCGUUGCUGAUGGAAGCAGCGUGUGAAGGGAUACGGACAAUCUCUCAGUCGAUGAGCCCUCGUCUGACUGACCAGAGUGGCCCAGCUUCUAUUCAAUUGGGAAAAUUUG: 0.397
CAGGCGAGUGCCAGCAGUGUUACUGCCGCCCCAUGUGGUGCCUCACCUGCAUGGGCAAGUGGUUCGCCAGCCGCCAGGACCCCCUGCGCCCUGACACCUGGCUGGCCAGC: 0.297
CAAAGGUGUGCUCUGAGCUUCUUCAUAUUUCACCUUCACCCUCACCUGUGUUCUCUUCCCUCUCUCCCAAUAAAAGGGCUCCCAUUAUAAAUGCCAUGUACUUCUCUUGG: 0.873
GGAGUUUCAUGUUUCUAAAGCUUUAAAAAGUAUCAAAAUCAUUCUUUGGAAAUAAUGACAUAAUAAGAAUUAGACUAUUUCUCAACUUUCUUAAGCGACUACAUCAUAUU: 0.518
UAAGUUGAUGAGCUUCUCUCUACAACAUUUCUAGAAAAUAGAAAAAAAAGCACAGAGAAAUGUUUAACUGUUUGACUCUUAUGAUACUUCUUGGAAACUAUGACAUCAAA: 0.599
AUUUUAGAUAUAUAUACUUUGUUUUGGAAUAUUUGGUUGUAUAAAAUGUAAUGAGUGAGCUAAUUGAUUUUUUAGACCAUAUUUGAAGAUGUGGAUGACUUACAAGAAAC: 0.745
CAUCGGGAGACCCUCGGGGGCUUCUGUGGCCUCUGUGCCCGAUGACCUGCGUGGCUUCAGACAAGGCCCCAGCGUUACUGGGCUCAGCUUGUUGUUCUGUGUGGAGCGUG: 0.653

Set 4
Target: RING finger protein unkempt homolog, zinc fingers 1-6, GST-SBP tag (UNK, Homo sapiens, UniProt Q9C0B0, residues 30-357)
UniProt Q9C0B0, sequence (30-357, looked up): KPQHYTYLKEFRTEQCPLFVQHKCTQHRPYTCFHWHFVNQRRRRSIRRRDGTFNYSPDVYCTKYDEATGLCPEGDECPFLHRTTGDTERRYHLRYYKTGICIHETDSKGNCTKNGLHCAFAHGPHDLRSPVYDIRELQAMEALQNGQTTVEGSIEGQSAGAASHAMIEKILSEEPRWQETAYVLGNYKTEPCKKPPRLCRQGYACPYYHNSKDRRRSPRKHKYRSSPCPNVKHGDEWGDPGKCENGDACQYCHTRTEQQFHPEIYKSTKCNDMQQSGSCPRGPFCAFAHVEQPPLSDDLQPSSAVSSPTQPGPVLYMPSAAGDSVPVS
Technique: RNA Bind-n-Seq
Form: RNA
Matrix: in vitro
Tested at: not given
Notes: RNA with constant flanks, human and mouse sites, ends assumed
Baseline: input RNA pool
Direction: higher = stronger binding
Quantity: bound/input enrichment
Constant ends, left off below: GGGAGUUCUACAGUCCGACGAUC … CAACAGAGGAUUGAGCAUCA
GUAUACGGUUAUCGAGGAAAGGACUGUAGAGCGAAUGUAUACCUGCUUCCCACAGGGGAGAUAGUUUAUUUUAUCGCCUCAGUGGUAGUCCUGUUUAAUUAUGAGGAGAGGACUCAGCGA: 0.37 ratio
UUUGGUGGGUUUGUCACUGAGCCUCAGGAGGAGUCUGAAGAAGAAGUAGAGGAACCUGAAGAAAGACAGCAAACACCUGAGGUGGUACCUGAUGAUUCUGGAACUUUCUAUGAUCAGGCA: 0.17 ratio
GUUAAUCACAGCUUGGAUUUGCAGCCAGUUACUUACUCGGAACCUGCAUUCUGGUGUUCAAUCGCAUACUAUGAACUAAACCAGAGGGUUGGAGAGACCUUCCAUGCGUCACAGCCCUCG: 0.138 ratio
UUACCAUCUGGCACACCUCAGAGUUUACCUAAAGAAGAUGAUAAGACAACCAAAACAAUAAAAGAACAGCCACAGCCACCAUGCACAGCAAAACCUGAUCAGGUGGAACCUGGGAAAGAA: 0.205 ratio
CGUGAAACCUAUUCUUAGCUCACAGGCCAUGGAGAAGCUGGUGGGGACCAGACCCAGCUCCUUAGCUGGCUGGGCUGGGGAGGGGGUAGUGACAGUGGCAGCUGCUACUCACUGCUCAGU: 0.11 ratio
AAAAUUGAUUGUUAUUUACUCCCAGAUCCUCUUGCAGACCCAGAAUUAUCAGGAACAUAGCUCUGUGAUUCAUGAGUGUCCCCAUACUGAUGAAUUGGAGCAUCCAUAUGGAAAGCAAAG: 0.18 ratio
AUGAAAAGACUGUGACCUCCUCUGGGGUUUGGUGGCAAGUCUGGGCUGGCAGAGAUGGGAUAGCUUCAGGUUUUGCACCGGCACUUUGAUGACACUCUCCUCUGGUGAUGUUUUAUUUAC: 0.246 ratio
UUGAUUGACCAGAAAGUGUAUGAGCUACAGGCCAGUCGUGUCUCCAGUGAUGUCAUUGACCAGAAGGUGUAUGAGAUCCAGGACAUCUAUGAGAACAGCUGGACCAAGCUGACUGAAAGA: 0.148 ratio
GGGUCGUGGUUCAUCCAGUCCCUUUGCAGCAUGCUGAAGCUGUACGCGCACAAGCUAGAAUUUAUGCACAUUCUCACUCGCGUUAACAGGAAGGUGGCAACGGAAUUCGAGUCCUUCUCC: 0.362 ratio
GCCAUGUUAGUAGAAAACACUAAGGAAGAAGUAAUUGUGAGGAGUAAAGACAAAGAGGAUUUAGUUUGUAGUGCAGCCCUUCAUAAUCCACAAGAGUCACCUGCGACCCUUACUAAAGUG: 1.21 ratio
CAUUCUAGGCCAAGUGAGAACUCCUCAGUUCCUUGGGACAUCUCCACCUCUAAAGAGGAAAAUUUAUCCACAGUUGAAGAAGAAACUGAUUACAAAUCACCAUCAGCUGAUGACAAAGGG: 0.114 ratio

A few entries again (set 1):
TGCTAGAGCTCGTTCCACGTGGTTACACATCCGCCA: 636 a.u.
GTTGATTTGAACAGAAGCGTGGTGAACGGCTTTGAT: 78.6 a.u.
TGCGCAACAACTTTTCACGTGCTGTTATGTCTAGAA: 1170 a.u.
GGCCAAAGTGTTCGTCACAAAACAGTGGTCCTATAT: 110 a.u.
CTAACGAAGGTTTGACATGTGGGTGACAAGCCAAGT: 102 a.u.
CAATAGCCGGGCTGGCACGCTACTAGAAGGCGGTTC: 65.4 a.u.
AGCTGATGCAATTATCCAATAATTTCTTTCACCACC: 102 a.u.
CGTCCTAGTGATTGCTTCGTGGGTGCCATGAGGAAG: 91.5 a.u.
TGCGCGCCCGCGACCCACGTGACGGTGATTCATTCG: 3980 a.u.
CGGGGTTAAGTTTGGGACGTGGGTGGCTTGCAGCAG: 53.9 a.u.
ACTTCTACTAAGAGTAACGTGGCCGAGAAGAGAAGA: 109 a.u.
CGGGGTTAAGTTTTTCACGTGCTGTGCTTGCAGCAG: 895 a.u.
